Published values of several laboratories.
Protocols differ between the studies behind these lines. ± marks the error that the study gave.

SMILES | cell line | test | setting | scale | quantity | result
O=C1NC(=O)C(=Cc2ccc(-c3cccc(C(F)(F)F)c3)o2)S1 | PBMC | ELISA | 10 µM, 48 h | reference: untreated | IFN-γ increase | 212%
CC(C)CC(CC(C)C)NC(=O)[C@H](Cc1c[nH]cn1)NC(=O)CNC(=O)[C@@H](NC(=O)[C@H](C)NC(=O)[C@H](Cc1c[nH]c2ccccc12)NC(=O)[C@H](CCC(N)=O)NC(=O)[C@@H](Cc1ccccc1)NC(=O)COCC(=O)Nc1ccc(CNC(=O)CN2CCN(CC(=O)O)CCN(CC(=O)O)CCN(CC(=O)O)CC2)cc1)C(C)C [lutetium-177 labelled] | PC-3, no chemotherapy pretreatment | SRB assay after 6 days | 50 MBq, 1 h, 37 °C | reference: medium-treated | cell density | 76.9 ± 18.3%
COc1cc(CNC(=O)C[C@H](C)CCC=C(C)C)ccc1OCc1cn(-c2cccc([N+](=O)[O-])c2)nn1 | LOX IMVI | SRB | 10 µM, 48 h |  | growth | 71.4%
CN1CCc2cc(Nc3ncc(C(F)(F)F)c(NCc4cc[nH]n4)n3)ccc2C1 | GL261 |  | concentration not given, 24 to 72 h | reference: untreated | G2/M cells | increased
COc1cc(CNC(=O)C[C@H](C)CCC=C(C)C)ccc1OCc1cn(-c2ccccc2[N+](=O)[O-])nn1 | MDA-MB-435 melanoma cells | SRB | 10 µM, 48 h |  | growth percent | 74.9%
COc1cc2c(OC3OCC(OC)C(OC)C3OC(=O)c3ccc(Br)cc3)c3c(c(-c4ccc5c(c4)OCO5)c2cc1OC)C(=O)OC3 (stereo not shown) | CAL-27 | RT-qPCR, measured: Twist | concentration not given, 36 h |  | mRNA level | decreased
COc1cc(CNC(=O)C[C@H](C)CCC=C(C)C)ccc1OCc1cn(-c2ccc(Br)cc2)nn1 | MDA-MB-435 melanoma cells | SRB | 10 µM, 48 h |  | growth percent | 98.3%
Clc1ccc(NN=C(c2ccccc2)c2ccccn2)nc1 | NCI-H358 | microarray | concentration not given, 4 h | within time | number of downregulated genes | ~20
CC[C@H](C(=O)N1CCCC[C@@H]1C(=O)O[C@H](CCc1ccc(OC)c(OC)c1)c1cccc(OCC(=O)NCCOCCOCCN(C)C/C=C/C(=O)Nc2cc3c(Nc4ccc(F)c(Cl)c4)ncnc3cc2OC)c1)c1cc(OC)c(OC)c(OC)c1 | NCI-H1975 expressing FKBP12F36V-PTPN2 | CellTiter-Glo | concentration not given, 6 days |  | decrease in viability | 57.6%
COc1cc(CNC(=O)C[C@H](C)CCC=C(C)C)ccc1OCc1cn(-c2cccc(C(F)(F)F)c2)nn1 | MDA-MB-435 melanoma cells | SRB | 10 µM, 48 h |  | growth percent | 74.9%
CC(=O)OC[C@H]1O[C@@H](Sc2sc(C(=O)c3ccc(Br)cc3)c(N)c2-c2nc3ccccc3s2)[C@H](OC(C)=O)[C@@H](OC(C)=O)[C@@H]1OC(C)=O | OVCAR-5 | SRB | 10 µM, 48 h | reference: untreated | growth | 65.7%
CC(C)C(=O)Cc1c(OCC(O)C(C)(C)O)ccc2ccc(=O)oc12 (stereo not shown) | COLO 320 (ABCB1-overexpressing, multidrug-resistant) | cell growth | 200 µM starting, CI at ED50, together with: doxorubicin, ratio 371.2:1 |  | combination index | 0.81
C[C@H](NC(=O)CNC(=O)[C@H](CCC(=O)O)NC(=O)[C@H](CCC(=O)O)NC(=O)[C@H](CC(=O)O)NC(=O)[C@@H]1CCCN1C(=O)[C@H](Cc1ccccc1)NC(=O)[C@H](CS)NC(=O)[C@H](Cc1ccc(O)cc1)NC(=O)CCCNC(=O)CNC(=O)CNC(=O)[C@@H](C)NC(=O)CN)C(=O)N[C@@H](CS)C(=O)N[C@@H](Cc1ccc(O)cc1)C(N)=O [technetium-99m labelled] | SK-BR-3 |  | 4 h, 37 °C |  | internalization | 9.81 ± 0.17%
CS(=O)(=O)c1ccc(-c2nnc(/C=C/c3nnc(-c4ccc(C#N)cc4)o3)n2-c2ccccc2Cl)nc1 | COLO 320DM | immunofluorescence, measured: non-phosphorylated β-catenin | 1 µM, 16 h, DMSO 100% |  | active β-catenin level | 26.4%
COc1cc(CNC(=O)C[C@H](C)CCC=C(C)C)ccc1OCc1cn(-c2ccccc2Cl)nn1 | MDA-MB-435 melanoma cells | SRB | 10 µM, 48 h |  | growth percent | 66.5%
CC(C)Cc1ccc(C(C)C(=O)N/N=C/c2ccc(OCC(=O)N/N=C/c3c(O)ccc4ccccc34)cc2)cc1 (stereo not shown) | U87 MG | MTT | 100 µM, 48 h |  | viability | 96.6%
CCCCCCCCCCCCCCCC(=O)OCC(CSC[C@H](N)C(=O)N[C@@H](CO)C(=O)N[C@@H](CCCCN)C(=O)N[C@@H](CCCCN)C(=O)N[C@@H](CCCCN)C(=O)N[C@@H](CCCCN)C(=O)NCCCCCC(=O)N[C@@H](CCCCN)C(=O)N[C@@H](CC(C)C)C(=O)N[C@H](C(=O)N[C@@H](Cc1ccccc1)C(=O)N[C@@H](Cc1ccccc1)C(=O)N[C@@H](Cc1ccc2ccccc2c1)C(=O)O)C(C)C)OC(=O)CCCCCCCCCCCCCCC (stereo partly shown) | BV-2 | western blot, measured: MSR1 | 1.0 µM, 12 h |  | protein level | increased
COc1cc(CNC(=O)C[C@H](C)CCC=C(C)C)ccc1OCc1cn(-c2ccccc2F)nn1 | ACHN | SRB | 10 µM, 48 h |  | growth percent | 65.3%
C[N+]1(CC(=O)OC2CCCCCCCCCCC2)CCCCC1 | DU-145 | cell viability, CellTiter Blue | 96 h |  | ED90 | 29.1 µM

A few entries again:
SMILES | cell line | test | setting | scale | quantity | result
CN1CCc2cc(Nc3ncc(C(F)(F)F)c(NCc4cc[nH]n4)n3)ccc2C1 | GL261 |  | concentration not given, 24 to 72 h | reference: untreated | G2/M cells | increased
COc1cc(CNC(=O)C[C@H](C)CCC=C(C)C)ccc1OCc1cn(-c2ccccc2Cl)nn1 | MDA-MB-435 melanoma cells | SRB | 10 µM, 48 h |  | growth percent | 66.5%
CC(C)C(=O)Cc1c(OCC(O)C(C)(C)O)ccc2ccc(=O)oc12 (stereo not shown) | COLO 320 (ABCB1-overexpressing, multidrug-resistant) | cell growth | 200 µM starting, CI at ED50, together with: doxorubicin, ratio 371.2:1 |  | combination index | 0.81
